Results from different studies.
Each numbered part is a random draw from the data of one study; scales do not carry over between parts. Changes are numbered by the printed parent chain.
Sequence of UniProt O75582 (whole entry, looked up): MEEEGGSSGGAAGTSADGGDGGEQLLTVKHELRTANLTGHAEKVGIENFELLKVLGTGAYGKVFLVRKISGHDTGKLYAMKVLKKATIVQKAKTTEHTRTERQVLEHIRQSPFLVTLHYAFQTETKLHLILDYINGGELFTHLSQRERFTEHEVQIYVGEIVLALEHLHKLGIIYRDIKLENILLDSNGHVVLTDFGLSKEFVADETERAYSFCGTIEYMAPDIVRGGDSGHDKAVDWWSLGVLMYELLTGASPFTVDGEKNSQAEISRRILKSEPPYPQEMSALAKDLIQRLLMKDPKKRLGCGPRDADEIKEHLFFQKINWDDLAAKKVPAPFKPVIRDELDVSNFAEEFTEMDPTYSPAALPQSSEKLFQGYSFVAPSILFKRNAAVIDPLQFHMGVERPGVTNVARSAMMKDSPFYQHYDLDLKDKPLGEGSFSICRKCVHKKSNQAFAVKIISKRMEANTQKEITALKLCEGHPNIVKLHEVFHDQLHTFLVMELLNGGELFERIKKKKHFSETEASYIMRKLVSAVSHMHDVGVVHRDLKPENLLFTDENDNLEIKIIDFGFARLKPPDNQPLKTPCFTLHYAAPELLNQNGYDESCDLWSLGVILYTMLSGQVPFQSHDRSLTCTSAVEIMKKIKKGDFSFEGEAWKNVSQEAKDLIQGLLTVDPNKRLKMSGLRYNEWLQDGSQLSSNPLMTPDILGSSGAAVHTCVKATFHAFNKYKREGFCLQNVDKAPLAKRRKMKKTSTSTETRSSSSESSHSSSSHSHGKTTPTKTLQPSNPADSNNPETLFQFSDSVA
Sequence of UniProt Q9BXA7 (whole entry, looked up): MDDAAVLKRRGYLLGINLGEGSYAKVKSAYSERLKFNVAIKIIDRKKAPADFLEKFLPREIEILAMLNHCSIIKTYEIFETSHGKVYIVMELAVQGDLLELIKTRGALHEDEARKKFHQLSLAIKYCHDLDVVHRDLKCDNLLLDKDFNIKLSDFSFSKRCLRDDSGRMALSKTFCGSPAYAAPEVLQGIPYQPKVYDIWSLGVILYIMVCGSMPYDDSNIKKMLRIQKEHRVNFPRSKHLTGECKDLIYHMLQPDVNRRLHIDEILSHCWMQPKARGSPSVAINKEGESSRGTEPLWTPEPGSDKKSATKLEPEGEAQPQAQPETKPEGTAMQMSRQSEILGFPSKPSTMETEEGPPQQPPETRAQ
Sequence of UniProt Q8N5S9 (whole entry, looked up): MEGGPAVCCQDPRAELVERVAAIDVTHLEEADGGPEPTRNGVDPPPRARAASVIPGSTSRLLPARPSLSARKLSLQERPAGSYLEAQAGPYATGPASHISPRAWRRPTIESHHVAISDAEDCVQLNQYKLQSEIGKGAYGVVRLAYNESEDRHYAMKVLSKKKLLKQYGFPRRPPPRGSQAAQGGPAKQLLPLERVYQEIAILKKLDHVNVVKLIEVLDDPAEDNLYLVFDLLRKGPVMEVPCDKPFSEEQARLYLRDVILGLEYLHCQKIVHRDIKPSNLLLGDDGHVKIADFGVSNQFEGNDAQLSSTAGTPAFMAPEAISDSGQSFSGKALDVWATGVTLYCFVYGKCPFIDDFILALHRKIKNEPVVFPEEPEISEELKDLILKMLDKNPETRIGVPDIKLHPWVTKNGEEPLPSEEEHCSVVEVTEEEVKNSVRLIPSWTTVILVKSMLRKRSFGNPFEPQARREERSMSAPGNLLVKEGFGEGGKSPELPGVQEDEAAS
Sequence of UniProt Q9P289 (whole entry, looked up): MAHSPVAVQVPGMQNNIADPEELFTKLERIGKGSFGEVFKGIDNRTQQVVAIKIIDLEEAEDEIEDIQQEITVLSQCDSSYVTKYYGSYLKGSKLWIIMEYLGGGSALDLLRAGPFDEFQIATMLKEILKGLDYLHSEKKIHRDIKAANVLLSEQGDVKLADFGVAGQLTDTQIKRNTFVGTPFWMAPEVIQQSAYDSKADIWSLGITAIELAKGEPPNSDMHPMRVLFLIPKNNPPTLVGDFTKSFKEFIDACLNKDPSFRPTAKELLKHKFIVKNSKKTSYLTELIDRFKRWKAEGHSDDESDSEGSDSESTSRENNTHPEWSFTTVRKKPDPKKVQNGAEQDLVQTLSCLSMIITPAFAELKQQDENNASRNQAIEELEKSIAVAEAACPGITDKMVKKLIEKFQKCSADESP
Sequence of UniProt P49761 (whole entry, looked up): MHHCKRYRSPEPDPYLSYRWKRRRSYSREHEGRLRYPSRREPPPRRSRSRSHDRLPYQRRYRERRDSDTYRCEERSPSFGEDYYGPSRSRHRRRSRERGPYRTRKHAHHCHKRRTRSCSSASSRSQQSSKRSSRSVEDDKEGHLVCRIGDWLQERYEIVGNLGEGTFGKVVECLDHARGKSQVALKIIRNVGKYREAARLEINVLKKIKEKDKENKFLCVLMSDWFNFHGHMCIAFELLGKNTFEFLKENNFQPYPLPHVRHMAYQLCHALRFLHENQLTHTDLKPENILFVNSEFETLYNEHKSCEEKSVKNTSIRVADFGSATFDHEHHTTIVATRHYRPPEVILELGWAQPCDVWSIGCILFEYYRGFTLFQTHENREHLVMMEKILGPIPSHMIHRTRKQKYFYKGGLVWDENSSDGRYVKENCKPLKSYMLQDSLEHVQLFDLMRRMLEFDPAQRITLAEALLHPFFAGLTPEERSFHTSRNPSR
Sequence of UniProt Q96D53 (whole entry, looked up): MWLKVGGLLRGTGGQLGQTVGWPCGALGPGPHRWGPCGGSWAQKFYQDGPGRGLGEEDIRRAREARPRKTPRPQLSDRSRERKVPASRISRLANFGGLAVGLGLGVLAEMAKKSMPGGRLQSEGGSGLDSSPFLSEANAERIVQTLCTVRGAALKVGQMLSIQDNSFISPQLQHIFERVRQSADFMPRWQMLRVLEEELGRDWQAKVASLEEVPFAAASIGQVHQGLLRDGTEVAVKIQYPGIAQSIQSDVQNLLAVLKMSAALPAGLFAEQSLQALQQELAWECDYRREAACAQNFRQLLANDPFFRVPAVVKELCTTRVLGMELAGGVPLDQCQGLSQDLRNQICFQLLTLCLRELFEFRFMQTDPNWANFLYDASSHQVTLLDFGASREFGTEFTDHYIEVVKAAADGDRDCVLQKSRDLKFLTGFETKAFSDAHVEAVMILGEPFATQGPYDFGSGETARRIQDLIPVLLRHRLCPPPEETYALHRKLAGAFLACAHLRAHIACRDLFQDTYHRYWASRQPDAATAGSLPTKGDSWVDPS
Sequence of UniProt Q15418 (whole entry, looked up): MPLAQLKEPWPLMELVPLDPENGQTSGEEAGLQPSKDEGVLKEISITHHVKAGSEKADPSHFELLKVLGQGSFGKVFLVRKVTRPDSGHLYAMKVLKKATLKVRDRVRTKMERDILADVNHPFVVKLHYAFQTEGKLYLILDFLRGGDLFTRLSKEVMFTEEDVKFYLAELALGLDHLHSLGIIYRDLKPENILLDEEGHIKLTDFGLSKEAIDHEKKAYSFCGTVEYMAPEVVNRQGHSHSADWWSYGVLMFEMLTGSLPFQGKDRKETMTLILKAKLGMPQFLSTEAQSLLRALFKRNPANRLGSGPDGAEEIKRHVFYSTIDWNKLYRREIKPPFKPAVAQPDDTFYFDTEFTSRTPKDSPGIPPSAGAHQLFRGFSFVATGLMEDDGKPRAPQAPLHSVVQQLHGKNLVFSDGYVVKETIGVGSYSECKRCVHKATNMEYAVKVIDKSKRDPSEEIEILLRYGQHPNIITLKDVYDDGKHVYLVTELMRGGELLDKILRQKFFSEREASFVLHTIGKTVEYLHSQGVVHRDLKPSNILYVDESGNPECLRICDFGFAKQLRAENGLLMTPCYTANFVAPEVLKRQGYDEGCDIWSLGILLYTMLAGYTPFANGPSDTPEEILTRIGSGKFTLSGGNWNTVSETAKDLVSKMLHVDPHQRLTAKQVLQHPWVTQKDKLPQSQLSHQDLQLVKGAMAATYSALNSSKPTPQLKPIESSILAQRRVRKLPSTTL
Sequence of UniProt P08588 (whole entry, looked up): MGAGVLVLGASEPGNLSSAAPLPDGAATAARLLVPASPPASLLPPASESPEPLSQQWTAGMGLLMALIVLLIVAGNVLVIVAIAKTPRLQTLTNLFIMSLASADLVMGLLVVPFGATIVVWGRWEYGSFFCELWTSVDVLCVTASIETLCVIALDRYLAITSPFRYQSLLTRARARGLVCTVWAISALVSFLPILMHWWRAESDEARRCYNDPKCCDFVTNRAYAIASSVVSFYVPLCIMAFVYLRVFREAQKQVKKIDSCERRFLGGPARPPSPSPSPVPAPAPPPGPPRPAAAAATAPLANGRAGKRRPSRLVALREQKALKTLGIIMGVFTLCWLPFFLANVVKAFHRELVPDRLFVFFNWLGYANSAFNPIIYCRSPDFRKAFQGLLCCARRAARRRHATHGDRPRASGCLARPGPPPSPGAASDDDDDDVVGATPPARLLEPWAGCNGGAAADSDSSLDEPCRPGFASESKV
Sequence of UniProt Q8TD08 (whole entry, looked up): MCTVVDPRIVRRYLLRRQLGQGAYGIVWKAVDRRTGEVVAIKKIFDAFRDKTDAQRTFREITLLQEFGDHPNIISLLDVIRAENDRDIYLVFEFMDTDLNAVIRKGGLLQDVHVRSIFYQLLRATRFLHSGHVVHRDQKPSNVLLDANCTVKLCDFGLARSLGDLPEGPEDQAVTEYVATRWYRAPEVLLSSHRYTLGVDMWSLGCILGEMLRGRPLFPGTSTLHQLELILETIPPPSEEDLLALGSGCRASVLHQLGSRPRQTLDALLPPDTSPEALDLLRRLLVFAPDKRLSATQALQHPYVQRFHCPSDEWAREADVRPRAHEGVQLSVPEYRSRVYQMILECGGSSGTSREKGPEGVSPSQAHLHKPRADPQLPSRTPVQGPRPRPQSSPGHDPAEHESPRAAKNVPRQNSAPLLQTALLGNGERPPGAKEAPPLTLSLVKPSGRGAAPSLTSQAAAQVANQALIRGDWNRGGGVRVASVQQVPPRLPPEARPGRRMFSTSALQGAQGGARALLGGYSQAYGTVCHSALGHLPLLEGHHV

Study 1
Target: Protein max, full length (MAX, Homo sapiens, UniProt P61244-2, residues 1-151)
Technique: protein-binding microarray
Form: double-stranded DNA, one strand shown
Matrix: in vitro
Concentration: not given
Setting: k-mer, scored over probes, only values ≥0.25
Direction: higher = stronger binding
| Strand | E-score |
| --- | --- |
| CCCATGGG | 0.289 |
| CATGCACG | 0.396 |
| CATGCCCC | 0.348 |
| AAGCCACG | 0.364 |
| CGTGGGAA | 0.384 |
| ACACCATG | 0.347 |
| ACGTGGGC | 0.444 |
| AACACCTG | 0.366 |

Study 2
Compound: Cc1cc(NC(=O)c2cccc(S(F)(F)(F)(F)F)c2)cc(-n2ccn3nc(-c4cccnc4)cc23)c1
Read-out: cell-free assay
Technique: competition with immobilised ligand
Concentration: 1 µM
| target | remaining binding [%] |
| --- | --- |
| Myosin-IIIb (MYO3B, Homo sapiens, UniProt Q8WXR4) | 73.8 |
| Mitogen-activated protein kinase 15 (MAPK15, Homo sapiens, UniProt Q8TD08) | 100 |
| Myosin-IIIa (MYO3A, Homo sapiens, UniProt Q8NEV4) | 100 |
| Peripheral plasma membrane protein CASK (CASK, Homo sapiens, UniProt O14936) | 68.1 |
| Serine/threonine-protein kinase mTOR (MTOR, Homo sapiens, UniProt P42345) | 99.2 |
| Calcium/calmodulin-dependent protein kinase kinase 1 (CAMKK1, Homo sapiens, UniProt Q8N5S9) | 100 |
| Serine/threonine-protein kinase 26 (STK26, Homo sapiens, UniProt Q9P289) | 100 |
| Mitogen-activated protein kinase 7 (MAPK7, Homo sapiens, UniProt Q13164) | 90 |
| Dual specificity protein kinase CLK3 (CLK3, Homo sapiens, UniProt P49761) | 100 |
| G protein-coupled receptor kinase 3 (GRK3, Homo sapiens, UniProt P35626) | 74.8 |
| Serine/threonine-protein kinase NIM1 (NIM1K, Homo sapiens, UniProt Q8IY84) | 100 |
| Testis-specific serine/threonine-protein kinase 1 (TSSK1B, Homo sapiens, UniProt Q9BXA7) | 100 |
| Ribosomal protein S6 kinase alpha-5, N-terminal kinase domain (RPS6KA5, Homo sapiens, UniProt O75582) | 100 |
| Ribosomal protein S6 kinase alpha-1, C-terminal kinase domain (RPS6KA1, Homo sapiens, UniProt Q15418) | 100 |
| Cyclin-dependent kinase 16 (CDK16, Homo sapiens, UniProt Q00536) | 100 |
| Microtubule-associated serine/threonine-protein kinase 1 (MAST1, Homo sapiens, UniProt Q9Y2H9) | 100 |
| Serine/threonine-protein kinase PAK 6 (PAK6, Homo sapiens, UniProt Q9NQU5) | 100 |
| Atypical kinase COQ8B, mitochondrial (COQ8B, Homo sapiens, UniProt Q96D53) | 100 |

Study 3
Target: CEP164, C-terminal peptide (human)
Technique: DHFR complementation, deep sequencing
Matrix: yeast
Setting: single substitutions, model-inferred values
Relative to: wild type
Direction: higher = weaker binding
Parent: PDZK1, PDZ domain 2 (human); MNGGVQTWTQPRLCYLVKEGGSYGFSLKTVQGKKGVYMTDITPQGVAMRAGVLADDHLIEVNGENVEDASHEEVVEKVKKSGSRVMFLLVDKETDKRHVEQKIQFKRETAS; partner HNRVKVYRF
| Change | binding free energy change [kcal/mol] |
| --- | --- |
| E72F | 0.779 |
| V66W | 0.651 |
| F105N | -0.162 |
| A50H | 0.435 |
| Q6M | -0.0241 |
| G32M | 0.703 |
| P11H | 0.212 |
| A47F | 1.62 |

Single results of other studies
| Structure (SMILES) | target or system | assay | test system | conditions | endpoint | result |
| --- | --- | --- | --- | --- | --- | --- |
| CC1(C)Oc2c(ccnc2Cl)[C@H](N(Cc2ncc[nH]2)c2ccc(Cl)cc2Cl)[C@H]1O | – | – | mouse, microsomes or S9 | 2 µM, 0.5 h | remaining compound | 1.81% |
| Nc1ncnc2nc(-c3ccc(N4CCOCC4)nc3)cc(-c3cccc(Br)c3)c12 | Beta-1 adrenergic receptor (ADRB1, Homo sapiens, UniProt P08588) | antagonist | – | – | IC50 | 25.1 µM |
| Cc1nn2cnnc2c(C)c1CCC(=O)Nc1nccs1 | – | – | mouse, microsomes or S9 | 2 µM, 0.5 h | remaining compound | 15.8% |

A few entries again (study 2):
| target | remaining binding [%] |
| --- | --- |
| Ribosomal protein S6 kinase alpha-5, N-terminal kinase domain (RPS6KA5, Homo sapiens, UniProt O75582) | 100 |
| Mitogen-activated protein kinase 7 (MAPK7, Homo sapiens, UniProt Q13164) | 90 |
